# Measured values collected from several papers.
# Compare with care: the assays were run in different laboratories.
# Target: Peroxisome proliferator-activated receptor gamma (PPARG, Homo sapiens, UniProt P37231)
# One construct used (P37231 1-505): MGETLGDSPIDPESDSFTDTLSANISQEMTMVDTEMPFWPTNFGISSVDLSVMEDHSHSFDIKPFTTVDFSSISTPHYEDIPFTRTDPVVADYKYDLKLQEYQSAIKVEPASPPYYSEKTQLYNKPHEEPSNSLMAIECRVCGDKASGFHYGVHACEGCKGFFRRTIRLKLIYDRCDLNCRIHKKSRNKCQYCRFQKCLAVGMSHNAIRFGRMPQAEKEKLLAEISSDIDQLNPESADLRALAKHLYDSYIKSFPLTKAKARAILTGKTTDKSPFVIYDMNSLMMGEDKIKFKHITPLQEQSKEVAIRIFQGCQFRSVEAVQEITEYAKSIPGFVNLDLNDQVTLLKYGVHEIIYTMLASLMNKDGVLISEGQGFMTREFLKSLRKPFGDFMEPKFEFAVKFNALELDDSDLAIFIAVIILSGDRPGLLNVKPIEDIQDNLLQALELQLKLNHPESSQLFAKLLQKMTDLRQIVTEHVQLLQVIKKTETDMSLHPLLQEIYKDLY
SMILES,read-out,mode,technique,with,quantity,result
COC(=O)C(C)NC(=O)/C=C/C=C/c1ccc2c(c1)OCO2 (centres unmarked),ligand displacement,,FP,,IC50,2.43 µM
COc1ccc(NC(=O)COc2ccc(/C=C/C(C)=N/O)cc2OC)cc1,ligand displacement,,TR-FRET,,IC50,5.97 µM
COc1cc2c(cc1OC)C(c1ccc(F)cc1F)N(CCCOc1ccc(CCC(=O)O)cc1)CC2 (centres unmarked),,,,,Ki,5.74 µM
C[C@H](CCC(=O)NCCOCCOCCOCCOCCOCCOCCOCCOCCOCCOCCOCCOCCOCCOCCOCCNC(=O)c1ccc2c(-c3ccc(C(=O)O)cc3)nn(C(=O)c3c(Cl)cccc3C(F)(F)F)c2c1)[C@H]1CC[C@H]2[C@@H]3CC=C4C[C@@H](O)CC[C@]4(C)[C@H]3CC[C@]12C,coactivator recruitment,antagonist,TR-FRET,rosiglitazone 1 µM,IC50,> 100 µM
COC(=O)C(CCSC)NC(=O)/C=C/C=C/c1ccc(O)c(O)c1 (centres unmarked),ligand displacement,,FP,,IC50,79.3 µM
Cc1cc(N2CC[C@@](C#N)(C3(C)CC3)C2=O)cc(C(=O)NCc2cc(F)cc(-c3cnn(C)c3)c2)n1,cell-free assay,,,,IC50,8.4 µM
O=C(O)c1ccc(-c2nc(-c3cccc(C(F)(F)F)c3)cs2)cc1,binding,,TR-FRET,,EC50,no binding
COc1cc(/C=C/C(C)=NO)ccc1OCC(=O)Nc1ccccc1Cl (stereo in doubt),ligand displacement,,TR-FRET,,IC50,13.3 µM

# Repeated from above:
SMILES,read-out,mode,technique,with,quantity,result
COC(=O)C(C)NC(=O)/C=C/C=C/c1ccc2c(c1)OCO2 (centres unmarked),ligand displacement,,FP,,IC50,2.43 µM
